Experimental data collected from several papers.
Each line is one published result; not all experiments were run side by side. ± gives the spread as reported.
Cell line: MDA-MB-468

Compound | test | conditions | scale | measurement | value
COc1ccc2c(c1)CCn1c[n+]3c(c1-2)-c1ccc(OC)cc1CC3 | Western blot, item: p-PERK Thr980, p-eIF2α Ser51 | 20 µM, 24 h | – | protein phosphorylation | increased
c1ccc(-c2nc(-c3cccnc3)[nH]c2-c2ccccc2)cc1 | cell growth or viability, SRB | 48 h | – | IC50 | 62.7 µM
N=C(N)NCCC[C@H](NC(=O)[C@H](Cc1c[nH]c2ccccc12)NC(=O)[C@H](CCC(N)=O)NC(=O)[C@H](Cc1c[nH]c2ccccc12)NC(=O)[C@H](CCCNC(=N)N)NC(=O)[C@H](Cc1c[nH]c2ccccc12)NC(=O)[C@H](CCC(N)=O)NC(=O)[C@H](Cc1c[nH]c2ccccc12)NC(=O)[C@@H](N)CCCNC(=N)N)C(N)=O | MTT | concentration not given, 24 h, 37 °C, 5% FBS | relative to: untreated cells | viability | 27 ± 4%
CC(=O)N[C@@H](Cc1ccc(O)cc1)CN(CC(=O)N[C@@H](CCCCN)CN(CC(=O)N[C@@H](Cc1ccccc1)CN(CC(=O)N[C@H]1CCCCNc2c(F)c(F)c(c(F)c2F)S(=O)(=O)c2c(F)c(F)c(c(F)c2F)NCCCC[C@@H](CN(CC(=O)N[C@@H](C)CN(CC(N)=O)S(C)(=O)=O)S(C)(=O)=O)NC(=O)CN(S(=O)(=O)Cc2ccccc2)C[C@H](CC(C)C)NC(=O)CN(S(=O)(=O)CCN)C1)S(=O)(=O)CC(C)C)S(=O)(=O)CCN)S(C)(=O)=O | cell growth or viability, CCK-8 | 72 h | – | GI50 | 4.63 µM
CCCCCCCCCCCCn1c(-c2cccnc2)nc(-c2ccc(C)cc2)c1-c1ccc(C)cc1 | cell growth or viability, SRB | 48 h | – | IC50 | > 100 µM
CC(=O)N[C@@H](Cc1ccc(O)cc1)CN(CC(=O)N[C@@H](CCCCN)CN(CC(=O)N[C@@H](Cc1ccccc1)CN(CC(=O)N[C@H]1CCCCNc2c(F)c(F)c(c(F)c2F)S(=O)(=O)c2c(F)c(F)c(c(F)c2F)NCCCC[C@@H](CN(CC(=O)N[C@@H](C)CN(CC(N)=O)S(C)(=O)=O)S(C)(=O)=O)NC(=O)CN(S(=O)(=O)CC(C)C)C[C@H](Cc2ccccc2)NC(=O)CN(S(=O)(=O)CCN)C1)S(=O)(=O)c1ccc(Cl)cc1)S(=O)(=O)CCN)S(C)(=O)=O | cell growth or viability, CCK-8 | 72 h | – | GI50 | 10.1 µM
Cc1cc(C)nc(NC(=S)N2CCN(Cc3ccc(C(F)(F)F)cc3)CC2)c1 | – | 10 µM, with: U-13C-serine | – | M+1 serine fraction | increased
CC(Cc1ccc(Cl)cc1)=C(c1ccc(Cl)cc1)c1ccc(OCCN(C)C)cc1 | cell growth or viability, SRB | – | – | GI50 | 2.97 µM
CCCCCCCCCCCCCCCCn1c(-c2cccnc2)nc(-c2ccc(C)cc2)c1-c1ccc(C)cc1 | cell growth or viability, SRB | 24 h | – | IC50 | > 100 µM
CC(=O)OC[C@H]1O[C@@H](Sc2sc(C(=O)c3ccc(C)cc3)c(N)c2-c2nc3ccccc3s2)[C@H](OC(C)=O)[C@@H](OC(C)=O)[C@@H]1OC(C)=O | SRB | 10 µM, 48 h | relative to: untreated | growth | 73.6%
CCCCCCCCn1c(-c2cccnc2)nc(-c2ccccc2)c1-c1ccccc1 | cell growth or viability, SRB | 48 h | – | IC50 | 87.2 µM
Nc1ccccc1NC(=O)c1ccc(Nc2nccc(-c3cn(C4CCCC4)nn3)n2)cc1 | cell growth or viability, SRB | 72 h | – | IC50 | 2.09 µM
C[C@H](NC(=O)[C@H](CCC(N)=O)NC(=O)[C@H](Cc1c[nH]c2ccccc12)NC(=O)[C@@H](N)CCCNC(=N)N)C(=O)N[C@@H](CCCNC(=N)N)C(=O)N[C@@H](Cc1c[nH]c2ccccc12)C(=O)N[C@@H](CCC(N)=O)C(=O)N[C@@H](Cc1c[nH]c2ccccc12)C(=O)N[C@@H](CCCNC(=N)N)C(N)=O | MTT | concentration not given, 2 h, 37 °C, 5% FBS | relative to: untreated cells | viability | 59 ± 9%
Cc1c(C)c(C)[c-](C)c1C.[C-]#[O+].[C-]#[O+].[C-]#[O+].[Cl-].[Cl-].[Cl-].[Ir+3].[Re+].c1cnc(-c2ncccn2)nc1 | PI flow cytometry | 50 µM | – | G2/M-phase cells | 42.7%
CCCCCCCCn1c(-c2cccnc2)nc(-c2ccc(C)cc2)c1-c1ccc(C)cc1 | cell growth or viability, SRB | 48 h | – | IC50 | 82.4 µM
CC(=O)OC[C@H]1O[C@@H](Sc2sc(C(=O)c3ccc(Br)cc3)c(N)c2-c2nc3ccccc3s2)[C@H](OC(C)=O)[C@@H](OC(C)=O)[C@H]1OC(C)=O | SRB | 10 µM, 48 h | relative to: untreated | growth | 91.9%
CCC(=C(c1ccc(Cl)cc1)c1ccc(OCCCN(C)C)cc1)c1ccc(OC)cc1 | cell growth or viability, SRB | – | – | GI50 | 1.06 µM
C[C@H](N)C(=O)N[C@@H](Cc1c[nH]c2ccccc12)C(=O)N[C@@H](CCC(N)=O)C(=O)N[C@@H](Cc1c[nH]c2ccccc12)C(=O)N[C@@H](CCCNC(=N)N)C(=O)N[C@@H](Cc1c[nH]c2ccccc12)C(=O)N[C@@H](CCC(N)=O)C(=O)N[C@@H](Cc1c[nH]c2ccccc12)C(=O)N[C@@H](CCCNC(=N)N)C(N)=O | MTT | concentration not given, 24 h, 37 °C, 5% FBS | relative to: untreated cells | viability | 48 ± 5%
CC(C)Cn1cc(-c2ccnc(Nc3ccc(OCCCCCCC(=O)NO)cc3)n2)nn1 | cell growth or viability, SRB | 72 h | – | IC50 | 1.92 µM
CCCCCCCCC=CCCCCCCCCn1c(-c2cccnc2)nc(-c2ccc(C)cc2)c1-c1ccc(C)cc1 | cell growth or viability, SRB | 48 h | – | IC50 | > 100 µM
C[C@H](NC(=O)[C@H](Cc1c[nH]c2ccccc12)NC(=O)[C@@H](N)CCCNC(=N)N)C(=O)N[C@@H](Cc1c[nH]c2ccccc12)C(=O)N[C@@H](CCCNC(=N)N)C(=O)N[C@@H](Cc1c[nH]c2ccccc12)C(=O)N[C@@H](CCC(N)=O)C(=O)N[C@@H](Cc1c[nH]c2ccccc12)C(=O)N[C@@H](CCCNC(=N)N)C(N)=O | MTT | concentration not given, 2 h, 37 °C, 5% FBS | relative to: untreated cells | viability | 45 ± 7%
